Assay results pooled from the literature.
Parts stem from different laboratories: compare values within a part only. Changes are numbered by the printed parent chain.

Study 1 — method: RNA Bind-n-Seq; molecule type: RNA; medium: in vitro; tested at: 365 nM; baseline: no-protein control; direction: higher = stronger binding
Target: RNA binding protein fox-1 homolog 2, RRM domain, GST-SBP tag (RBFOX2, Homo sapiens, UniProt O43251-10, residues 100-194)
Notes: natural RNA segment, single round, ends assumed
Shared flanks, not repeated: GGGAGUUCUACAGUCCGACGAUC … UGGAAUUCUCGGGUGCCAA
Target sequence (chain): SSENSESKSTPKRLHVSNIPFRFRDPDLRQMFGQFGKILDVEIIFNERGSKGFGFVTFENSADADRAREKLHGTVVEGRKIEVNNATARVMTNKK
Under “RBNS enrichment (R)”, `CUAGAGAGUUUGAGGAUUGCUUUUUAAAAAAGACAGCAAACUUUUUUUUUUAUUUAAAAAAAGAUAUAUUAACAGUUUUAGAAGUCAGUAGAAUAAAAUCUUAAAGCACU` is recorded as 0.538.
For `CCUGAGAAAUCAGGACAUGGAAAUCAGAGCAUAUACAUAAGGAACUUAAUUUUAAUGUAAUCAUGUCUAAUGAUCCUCAUCUUCAUUCCUUGAGAUUACCCAAGUACCGU`, “RBNS enrichment (R)” read 0.291.
`AAAGGACCAACCUGCCUUACGUAUCAGUUUAGUUCCUGAAAUCAGUGGAACUAUUCAAGGGACGGAACUCCUCUGGAGACUCUGUUUAAACAUACUUUUCAGUUCCCGAG`: “RBNS enrichment (R)” 0.546.
For `GUUUGCAUUGUUGAUGACAGGUUCACAAUAAAGUGACGUUCUGGUGGAGGUAGAGUGAAAUGUUUUUUAAUUCAGUUUUCUCAUUUGAUACUUUUAAUUUACAAAGUAAU`, “RBNS enrichment (R)” read 0.637.
For `UUUAAAGAUUUAUAUAAUGCAUCAAAAGCCUUAGAAUAAGAAAAGCUUUUUUUAAAUUGCUUUAUCUGUAUAUCUGAACUCUUGAAACUUAUAGCUAAAACACUAGGAUU`, “RBNS enrichment (R)” read 0.366.
`CUGGCCUUGGGAAACUCAUCCUACAGGGGAAGGCCAGUUUUUUUCCCUUCAAUUCCUCAAGUCUGGGUGGUGACAAGGUAGGGGCUAGGUACUGGACUACCACAGGUUUU` — result for “RBNS enrichment (R)”: 0.874.
For `AAAGACUAGGUACUGUAAGCAUACAUUUGUGCGAGCUGGCUUAGGGUUGGUUCCUCAUCCUCCACCCUGACCUUUCCUCUGGCCUGUUCAAGGCCUGGUAAAGUCAGGCU`, “RBNS enrichment (R)” read 0.146.
`CCGGAUCCCUCCUCACUUGCCCUGCCACUUUGCAUGGUUUGAUUUUGACCUGGUCCCCCACGUGUGAAGUGUAGUGGCAUCCAUUUCUAAUGUAUGCAUUCAUCCAACAG`: “RBNS enrichment (R)” 1.29.

Study 2 — method: protein-binding microarray; molecule type: hairpin DNA; medium: in vitro; tested at: not given; baseline: not given; direction: higher = stronger binding; shared flanks, not repeated: GAGGCCG … CGGCCTCACACTC
Target: Homeobox protein Hox-B13, full length (HOXB13, Homo sapiens, UniProt Q92826, residues 1-284)
Chain of UniProt Q92826 (whole entry, looked up): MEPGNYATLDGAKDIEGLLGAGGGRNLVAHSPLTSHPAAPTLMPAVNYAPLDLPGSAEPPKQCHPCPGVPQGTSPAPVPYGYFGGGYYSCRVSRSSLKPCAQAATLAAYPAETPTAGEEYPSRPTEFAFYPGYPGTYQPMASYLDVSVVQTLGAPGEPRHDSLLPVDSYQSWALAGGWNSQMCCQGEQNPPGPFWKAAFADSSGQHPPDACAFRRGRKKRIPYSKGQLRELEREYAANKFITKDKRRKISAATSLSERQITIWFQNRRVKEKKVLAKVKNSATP
Notes: whole hairpin DNA, median over replicate spots
The median fluorescence of `CTTTATTGGGGCCTCCTGGCCCCAATAAAG (5mC at 8)` is reported as 4810 a.u.
`TTCTACGAGGGCCTCCTGGCCCTCGTAGAA (5mC at 10)` gave a median fluorescence of 4030 a.u.
`TTTTATTGGGGCCTCCTGGCCCCAATAAAA (5mC at 30)` has a median fluorescence of 5420 a.u.
The median fluorescence of `TTTTACGGGGGCCTCCTGGCCCCCGTAAAA (5mC at 13 31)` is reported as 5180 a.u.
For `TTCGATTGGGGCCTCCTGGCCCCAATCGAA (5mC at 10)`, the median fluorescence was 4060 a.u.
`TCGTATTGGGGCCTCCTGGCCCCAATACGA (5mC at 9)` has a median fluorescence of 3990 a.u.
`TTTTACTGGGGCCTCCTGGCCCCAGTAAAA` has a median fluorescence of 4500 a.u.
`TTTTACGAGGGCCTCCTGGCCCTCGTAAAA` gave a median fluorescence of 5440 a.u.
With `TTTTATTCGGGCCTCCTGGCCCGAATAAAA (5mC at 15)` the median fluorescence was 3850 a.u.
With `TTTGATTGGGGCCTCCTGGCCCCAATCAAA` the median fluorescence was 4210 a.u.
For `TGTTACGAGGGCCTCCTGGCCCTCGTAACA (5mC at 36)`, the median fluorescence was 4240 a.u.
`TTTCGCGAGGGCCTCCTGGCCCTCGCGAAA (5mC at 11 33)` has a median fluorescence of 4080 a.u.
For `TTTTACGAGGGCCTCCTGGCCCTCGTAAAA (5mC at 13)`, the median fluorescence was 5130 a.u.
The median fluorescence of `TCGTACGAGGGCCTCCTGGCCCTCGTACGA (5mC at 9)` is reported as 3960 a.u.

Study 3 — method: DHFR PCA, deep sequencing; medium: yeast; added: (+)-ABA 0.032 µM; baseline: wild-type fitted maximum; direction: higher = stronger binding
Target: ABI1, truncated, D143A, DHFR fusion (Arabidopsis thaliana)
Notes: methotrexate growth selection, single substitutions
Starting sequence: PYL1, truncated, DHFR fusion (Arabidopsis thaliana); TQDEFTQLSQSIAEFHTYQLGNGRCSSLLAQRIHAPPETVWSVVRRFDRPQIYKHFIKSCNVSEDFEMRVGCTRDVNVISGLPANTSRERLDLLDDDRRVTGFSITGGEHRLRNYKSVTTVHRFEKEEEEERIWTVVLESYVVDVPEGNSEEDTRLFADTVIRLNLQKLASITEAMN
Under “relative binding score”, `W41G` is recorded as -0.309%.
`V142I` — result for “relative binding score”: 20.4%.
`V137F` — result for “relative binding score”: 8.96%.
For `N85K`, “relative binding score” read 41.7%.
`I172K` — result for “relative binding score”: -2.78%.
Under “relative binding score”, `V40S` is recorded as 6.8%.
For `D96I`, “relative binding score” read 0.432%.
`E152P` — result for “relative binding score”: -9.69%.
For `K126I`, “relative binding score” read 22.5%.
For `E130L`, “relative binding score” read 12.7%.
For `W41L`, “relative binding score” read 2.68%.
For `F66S`, “relative binding score” read 5.76%.
`P146I`: “relative binding score” 18%.
Under “relative binding score”, `R98K` is recorded as 35.7%.
`D159M` — result for “relative binding score”: -6.57%.
Under “relative binding score”, `R113G` is recorded as 5.97%.
Under “relative binding score”, `V121P` is recorded as 0.465%.
For `L138C`, “relative binding score” read -1.36%.
`T86G` — result for “relative binding score”: 3.12%.
Under “relative binding score”, `R46I` is recorded as -18.3%.
Under “relative binding score”, `R155D` is recorded as -4.23%.

Study 4 — target: CCNA1, cyclin fold, Cln2 fusion (human); method: yeast growth competition, sequencing; medium: yeast; notes: weak parent motif; baseline: not given; direction: higher = stronger binding
Starting sequence: MASTL docking peptide (human); PMIAKNLMCELDE
`PMPAKNLMCELDE [I3P]`: “normalised enrichment score” 0.14.
For `PMIAKALMCELDE [N6A]`, “normalised enrichment score” read -0.222.
For `PMIAKNLRCELDE [M8R]`, “normalised enrichment score” read 0.121.
`PMIAKNLGCELDE [M8G]` — result for “normalised enrichment score”: 0.035.
`PMIAKNLMCELWE [D12W]` — result for “normalised enrichment score”: -0.166.
For `PMIAMNLMCELDE [K5M]`, “normalised enrichment score” read 0.00866.
Under “normalised enrichment score”, `PMIAKNLCCELDE [M8C]` is recorded as -0.222.
For `PMIAKNLMNELDE [C9N]`, “normalised enrichment score” read -0.227.
Under “normalised enrichment score”, `PMLAKNLMCELDE [I3L]` is recorded as -0.0427.
For `PMAAKNLMCELDE [I3A]`, “normalised enrichment score” read 0.0301.
Under “normalised enrichment score”, `PMIAKNLKCELDE [M8K]` is recorded as 0.0176.
`PMIAKNDMCELDE [L7D]`: “normalised enrichment score” -0.0634.
Under “normalised enrichment score”, `PMISKNLMCELDE [A4S]` is recorded as 0.0368.
`PMIAKNLMQELDE [C9Q]` — result for “normalised enrichment score”: 0.0843.
For `PMIGKNLMCELDE [A4G]`, “normalised enrichment score” read 0.231.
For `PMIAKNLMCELFE [D12F]`, “normalised enrichment score” read 0.198.
Under “normalised enrichment score”, `PMIAKNLMPELDE [C9P]` is recorded as 0.196.
Under “normalised enrichment score”, `PMIAKNLMIELDE [C9I]` is recorded as -0.175.
For `PMIAKNLMCENDE [L11N]`, “normalised enrichment score” read -0.117.
For `PMIAKNLMCEEDE [L11E]`, “normalised enrichment score” read 0.131.
For `PMIAKNLMCDLDE [E10D]`, “normalised enrichment score” read 0.241.
`PMIAKNLLCELDE [M8L]`: “normalised enrichment score” 0.48.
Under “normalised enrichment score”, `PMINKNLMCELDE [A4N]` is recorded as 0.213.
`PMIAKNLMCHLDE [E10H]` — result for “normalised enrichment score”: 0.11.
Under “normalised enrichment score”, `PMIAKNYMCELDE [L7Y]` is recorded as 0.223.

Study 5 — method: universal PBM; molecule type: double-stranded DNA, one strand shown; medium: in vitro; tested at: not given; direction: higher = stronger binding
Target: Sal-like protein 4, full length isoform B (SALL4, Homo sapiens, UniProt Q9UJQ4-2, residues 1-616)
Notes: 8-mer, flanks averaged, mean of replicates
`ACTAGCCG` gave an E-score of -0.24.
With `ACGCAGCC` the E-score was -0.273.
`CGCCTGGA` has an E-score of -0.252.
The E-score of `AGTTACGA` is reported as 0.106.
The E-score of `AGATAGGG` is reported as -0.0386.
`GCGACGTA` gave an E-score of -0.0762.
`GGGGTCTA` has an E-score of -0.103.
`ATCAGGTG` gave an E-score of -0.0769.
`ATTTTTCA` gave an E-score of 0.349.
`ATGGGTAG` has an E-score of 0.0776.
With `CAATGTGA` the E-score was 0.234.
For `CTACTTAC`, the E-score was 0.151.
For `ACCCAACC`, the E-score was -0.0265.
`GAAACTTC` gave an E-score of -0.146.
With `CCTCCTCG` the E-score was -0.204.
`ATTCTCCA` has an E-score of 0.143.
`AGGAAGGC` has an E-score of -0.174.
For `ATAGATTG`, the E-score was 0.219.
For `CCACCACC`, the E-score was -0.173.
With `CGTCGGTA` the E-score was -0.0856.
`GCTTCTAC` has an E-score of 0.0665.
The E-score of `CGCCGGTA` is reported as -0.219.
`CCTCTGGC` has an E-score of -0.136.
`CGACCTCC` gave an E-score of -0.211.
`CCATTTAG` has an E-score of -0.0708.

For quick reference, copied from above (study 2):
`TTTTACGAGGGCCTCCTGGCCCTCGTAAAA` gave a median fluorescence of 5440 a.u.
For `TTCGATTGGGGCCTCCTGGCCCCAATCGAA (5mC at 10)`, the median fluorescence was 4060 a.u.
With `TTTTATTCGGGCCTCCTGGCCCGAATAAAA (5mC at 15)` the median fluorescence was 3850 a.u.
The median fluorescence of `TTTTACGGGGGCCTCCTGGCCCCCGTAAAA (5mC at 13 31)` is reported as 5180 a.u.
With `TTTGATTGGGGCCTCCTGGCCCCAATCAAA` the median fluorescence was 4210 a.u.
For `TGTTACGAGGGCCTCCTGGCCCTCGTAACA (5mC at 36)`, the median fluorescence was 4240 a.u.
`TTTCGCGAGGGCCTCCTGGCCCTCGCGAAA (5mC at 11 33)` has a median fluorescence of 4080 a.u.
The median fluorescence of `CTTTATTGGGGCCTCCTGGCCCCAATAAAG (5mC at 8)` is reported as 4810 a.u.
The median fluorescence of `TCGTACGAGGGCCTCCTGGCCCTCGTACGA (5mC at 9)` is reported as 3960 a.u.
For `TTTTACGAGGGCCTCCTGGCCCTCGTAAAA (5mC at 13)`, the median fluorescence was 5130 a.u.
`TTTTATTGGGGCCTCCTGGCCCCAATAAAA (5mC at 30)` has a median fluorescence of 5420 a.u.
`TCGTATTGGGGCCTCCTGGCCCCAATACGA (5mC at 9)` has a median fluorescence of 3990 a.u.
`TTCTACGAGGGCCTCCTGGCCCTCGTAGAA (5mC at 10)` gave a median fluorescence of 4030 a.u.
`TTTTACTGGGGCCTCCTGGCCCCAGTAAAA` has a median fluorescence of 4500 a.u.
